Measurements from different studies.
Each line is one published result; not all experiments were run side by side.
Cdca7: Cdca7 241-382 (Mus musculus, UniProt Q9D0M2)
UniProt Q9D0M2, sequence (whole entry, looked up): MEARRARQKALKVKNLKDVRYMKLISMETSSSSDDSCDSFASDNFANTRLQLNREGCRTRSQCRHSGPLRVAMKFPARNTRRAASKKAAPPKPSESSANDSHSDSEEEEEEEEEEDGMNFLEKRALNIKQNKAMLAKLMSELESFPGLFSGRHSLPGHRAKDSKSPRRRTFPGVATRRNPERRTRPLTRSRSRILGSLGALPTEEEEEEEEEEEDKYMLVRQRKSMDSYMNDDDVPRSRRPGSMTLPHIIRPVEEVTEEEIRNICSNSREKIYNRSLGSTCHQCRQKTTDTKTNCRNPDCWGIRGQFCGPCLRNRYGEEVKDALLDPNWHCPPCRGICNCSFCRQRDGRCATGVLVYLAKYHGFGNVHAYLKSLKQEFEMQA
UniProt O43248, sequence (whole entry, looked up): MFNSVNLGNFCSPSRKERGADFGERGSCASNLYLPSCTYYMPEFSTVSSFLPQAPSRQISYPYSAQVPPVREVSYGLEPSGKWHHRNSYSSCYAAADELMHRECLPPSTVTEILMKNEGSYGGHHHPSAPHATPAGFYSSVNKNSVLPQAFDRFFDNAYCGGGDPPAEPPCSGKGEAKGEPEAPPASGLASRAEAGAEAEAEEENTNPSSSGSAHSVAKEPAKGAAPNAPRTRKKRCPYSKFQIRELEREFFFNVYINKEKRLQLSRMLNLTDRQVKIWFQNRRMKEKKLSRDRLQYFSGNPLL
UniProt Q96T21, sequence (whole entry, unmodified, looked up): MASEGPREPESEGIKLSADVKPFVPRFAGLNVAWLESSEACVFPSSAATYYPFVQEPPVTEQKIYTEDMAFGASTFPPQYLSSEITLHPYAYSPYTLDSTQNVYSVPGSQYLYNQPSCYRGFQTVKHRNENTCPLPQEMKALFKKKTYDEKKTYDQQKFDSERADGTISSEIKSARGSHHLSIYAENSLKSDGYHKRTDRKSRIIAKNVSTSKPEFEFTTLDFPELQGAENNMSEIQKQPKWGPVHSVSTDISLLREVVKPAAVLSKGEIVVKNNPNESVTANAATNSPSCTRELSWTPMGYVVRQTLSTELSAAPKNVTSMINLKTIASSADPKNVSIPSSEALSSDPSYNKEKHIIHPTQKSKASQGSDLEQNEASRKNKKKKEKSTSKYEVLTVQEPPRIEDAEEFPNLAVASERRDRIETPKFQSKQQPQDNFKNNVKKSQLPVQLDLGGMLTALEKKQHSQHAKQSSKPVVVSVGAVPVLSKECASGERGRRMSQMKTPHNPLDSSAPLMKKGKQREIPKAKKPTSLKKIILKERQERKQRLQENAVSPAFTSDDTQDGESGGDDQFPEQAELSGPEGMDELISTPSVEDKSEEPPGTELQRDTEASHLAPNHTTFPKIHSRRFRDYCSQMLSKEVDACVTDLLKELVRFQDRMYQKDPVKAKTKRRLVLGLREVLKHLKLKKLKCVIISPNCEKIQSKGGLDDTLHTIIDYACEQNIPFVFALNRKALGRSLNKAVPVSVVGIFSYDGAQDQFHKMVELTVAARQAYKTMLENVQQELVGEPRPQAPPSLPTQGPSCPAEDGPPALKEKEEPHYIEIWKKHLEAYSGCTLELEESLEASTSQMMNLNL
UniProt P27695, sequence (whole entry, unmodified, looked up): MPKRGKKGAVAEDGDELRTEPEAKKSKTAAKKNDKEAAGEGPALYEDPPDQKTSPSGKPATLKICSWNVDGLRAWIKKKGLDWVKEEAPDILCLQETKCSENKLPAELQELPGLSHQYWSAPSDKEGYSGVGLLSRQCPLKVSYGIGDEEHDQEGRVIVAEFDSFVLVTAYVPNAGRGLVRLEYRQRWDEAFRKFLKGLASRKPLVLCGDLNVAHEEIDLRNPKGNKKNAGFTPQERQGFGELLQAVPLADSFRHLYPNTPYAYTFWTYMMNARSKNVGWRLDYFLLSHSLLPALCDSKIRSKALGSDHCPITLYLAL
UniProt P16914, sequence (whole entry, looked up): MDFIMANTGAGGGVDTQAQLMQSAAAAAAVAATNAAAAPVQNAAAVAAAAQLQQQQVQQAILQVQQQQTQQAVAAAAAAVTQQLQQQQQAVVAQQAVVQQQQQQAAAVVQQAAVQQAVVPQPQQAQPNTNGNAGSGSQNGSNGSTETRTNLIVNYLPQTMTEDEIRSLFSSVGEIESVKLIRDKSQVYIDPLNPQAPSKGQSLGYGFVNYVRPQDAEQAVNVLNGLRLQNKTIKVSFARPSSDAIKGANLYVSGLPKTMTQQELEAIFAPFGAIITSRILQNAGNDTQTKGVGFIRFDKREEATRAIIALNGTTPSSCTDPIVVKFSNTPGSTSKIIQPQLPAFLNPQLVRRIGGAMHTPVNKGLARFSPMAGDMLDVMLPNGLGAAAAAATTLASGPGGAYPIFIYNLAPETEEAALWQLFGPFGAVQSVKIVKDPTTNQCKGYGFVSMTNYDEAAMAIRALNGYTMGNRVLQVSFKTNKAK
UniProt P00698, sequence (whole entry, looked up): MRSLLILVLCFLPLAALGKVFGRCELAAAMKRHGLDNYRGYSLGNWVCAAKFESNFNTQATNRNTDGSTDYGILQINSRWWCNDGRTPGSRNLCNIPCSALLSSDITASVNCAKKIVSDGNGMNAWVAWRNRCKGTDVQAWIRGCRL
UniProt P19525, sequence (whole entry, unmodified, looked up): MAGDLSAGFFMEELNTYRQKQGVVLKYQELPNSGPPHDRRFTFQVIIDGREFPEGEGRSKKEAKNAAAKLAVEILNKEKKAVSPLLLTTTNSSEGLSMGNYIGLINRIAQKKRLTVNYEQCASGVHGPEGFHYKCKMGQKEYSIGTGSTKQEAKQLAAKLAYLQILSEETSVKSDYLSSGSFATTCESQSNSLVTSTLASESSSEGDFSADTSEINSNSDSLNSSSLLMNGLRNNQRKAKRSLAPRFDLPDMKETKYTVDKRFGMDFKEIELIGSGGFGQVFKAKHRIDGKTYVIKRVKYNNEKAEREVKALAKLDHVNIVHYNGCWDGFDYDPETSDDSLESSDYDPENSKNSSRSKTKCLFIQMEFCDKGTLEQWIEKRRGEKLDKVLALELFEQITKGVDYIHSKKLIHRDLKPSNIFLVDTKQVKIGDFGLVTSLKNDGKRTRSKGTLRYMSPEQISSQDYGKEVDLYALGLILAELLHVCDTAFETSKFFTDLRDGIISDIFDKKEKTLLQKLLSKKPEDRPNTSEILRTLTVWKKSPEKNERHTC
UniProt Q9UKA9, sequence (whole entry, looked up): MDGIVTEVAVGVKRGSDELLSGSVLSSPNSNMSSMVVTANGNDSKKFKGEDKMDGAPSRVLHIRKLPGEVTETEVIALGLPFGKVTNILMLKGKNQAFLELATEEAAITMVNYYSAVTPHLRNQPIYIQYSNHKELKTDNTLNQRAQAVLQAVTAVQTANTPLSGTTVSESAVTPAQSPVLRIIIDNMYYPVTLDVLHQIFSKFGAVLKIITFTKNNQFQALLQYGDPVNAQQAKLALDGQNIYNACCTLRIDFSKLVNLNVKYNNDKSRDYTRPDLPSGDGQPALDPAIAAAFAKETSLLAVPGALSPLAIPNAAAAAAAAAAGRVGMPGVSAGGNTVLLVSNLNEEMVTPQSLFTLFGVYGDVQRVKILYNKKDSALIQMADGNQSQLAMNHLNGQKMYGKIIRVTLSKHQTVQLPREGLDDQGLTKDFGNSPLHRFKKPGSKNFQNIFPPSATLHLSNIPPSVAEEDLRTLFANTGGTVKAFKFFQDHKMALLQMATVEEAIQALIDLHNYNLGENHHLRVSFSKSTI
UniProt Q16637, sequence (whole entry, looked up): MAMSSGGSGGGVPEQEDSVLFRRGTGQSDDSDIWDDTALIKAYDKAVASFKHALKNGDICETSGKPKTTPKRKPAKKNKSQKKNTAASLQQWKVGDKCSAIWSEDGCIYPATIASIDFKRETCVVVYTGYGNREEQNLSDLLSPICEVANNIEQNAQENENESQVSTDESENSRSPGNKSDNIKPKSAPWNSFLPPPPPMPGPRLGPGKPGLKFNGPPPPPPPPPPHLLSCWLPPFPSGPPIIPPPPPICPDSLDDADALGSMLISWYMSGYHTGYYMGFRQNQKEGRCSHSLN

| Strand | target | method | molecule type | concentration | setting | binding |
| --- | --- | --- | --- | --- | --- | --- |
| DNA 1 TGGCCAAAAAAGCATTGCTTATCAATTTGTTGCACC / DNA 2 TGGTGCAACAAATTGATAAGCAATGCTTTTTTGGCC (dsDNA) | IHF alpha/IHF beta (Escherichia coli) | CD thermal melting | double-stranded DNA |  | KCl 100 mM | binds |
| CAACGCCCTGTCGGTGAGAAACCGTTTGCA (DNA; hairpin) | Cdca7 | EMSA | folded DNA |  |  | binds |
| CCCUCUGUCCCGGAGCCCGCAGAUCGCGACCCAGAGCGCGCGGGGCCGAGAGCCGAGAGACAGUCCCGGGCGCAGCGCGGAGCUCCGGGCCCCGAGAUCC (structured RNA) | PTBP2 full length assumed (Homo sapiens, UniProt Q9UKA9) | EMSA | folded RNA |  |  | no binding |
| UUUUUAAUUGAUUACGUUCGCUUUUGUUUGAUUAUUGUUUUGG (ssRNA) | elav full length assumed (Drosophila melanogaster, UniProt P16914) | EMSA | RNA |  |  | binds |
| GGGCUAAAGAGUGCAGAGUUACUUAGUUCACUGCAGACUUGACGAAGCUU (structured RNA) | LYZ 19-147 (Gallus gallus, UniProt P00698) | filter binding | folded RNA |  |  | no binding |
| DNA 1 GATGCCCTGTCGGTGAGACCGTTTCATCG / DNA 2 CGATGCCTGTCGGTGAGACCGTTTGCATC (DNA; annealed oligos) | Cdca7 | EMSA | folded DNA |  |  | binds |
| GGGAUCCGACUCCAUGAAAGGAAAAGGCACCCGAGAUAAAGUCCUGAUCAGAAUCAUGGUCUCCAAGCU (structured RNA) | Survival motor neuron protein 1-294 (Homo sapiens, UniProt Q16637) | competition | folded RNA |  | complete loss | no binding |
| GCAGCCCAUGAUGGCUGAAUCCGAAAUCCUCGAUGGGUCCAGCUUGAUGUCUUUGCAGC (structured RNA) | SECISBP2 344-854 I535S/I536V/L537R/K538V/E539Y (Homo sapiens, UniProt Q96T21) | EMSA | folded RNA |  |  | no binding |
| RNA 1 GGAGGAUGUUAAUUGGCGUGUCUUGUCUGCAACGGUAUUC / RNA 2 GAAUACCGUUGCAGACAAGACACGCCAAUUAACAUCCUCC (dsRNA) | EIF2AK2 1-185 F131W/Q110A (Homo sapiens, UniProt P19525) | tryptophan fluorescence anisotropy | double-stranded RNA | 1 µM |  | binds |
| GTGTCTCTGGTTTTATGACCATTTTGACCAG (dsDNA) | HOXC11 1-304 (Homo sapiens, UniProt O43248) | EMSA | double-stranded DNA, one strand shown |  |  | binds |
| TTTTTTTTTTTTTTTTTTTTTTT (ssDNA; unstructured) | APEX1 34-318 del1-33 (Homo sapiens, UniProt P27695) | SPR | single-stranded DNA |  |  | no binding |
| GAAACGGGACGGCACCUCUUUUAACCCUUGAAGUCACUGCCCGUUUCGAGAGUUUCUCAACUCGAAUAACUAAAGCCAACGUGAACUUUUGCGGAUCUCCAGGAUCCGCUUUUUUUU (structured RNA) | hfq full length assumed F42W (Escherichia coli, UniProt P0A6X3) | tryptophan fluorescence quenching | folded RNA |  |  | binds |
| CAACGCCCUGUCGGUGAGAAACCGUUUGCA (ssRNA) | Cdca7 | EMSA | RNA |  |  | no binding |

For quick reference, copied from above:
| Strand | target | method | molecule type | concentration | setting | binding |
| --- | --- | --- | --- | --- | --- | --- |
| GTGTCTCTGGTTTTATGACCATTTTGACCAG (dsDNA) | HOXC11 1-304 (Homo sapiens, UniProt O43248) | EMSA | double-stranded DNA, one strand shown |  |  | binds |
| TTTTTTTTTTTTTTTTTTTTTTT (ssDNA; unstructured) | APEX1 34-318 del1-33 (Homo sapiens, UniProt P27695) | SPR | single-stranded DNA |  |  | no binding |
